Published values gathered from unrelated publications.
Numbered parts are unrelated; each lists some results of a single study.

Block 1
Target: RNA binding protein fox-1 homolog 2, RRM domain, GST-SBP tag (RBFOX2, Homo sapiens, UniProt O43251-10, residues 100-194)
Method: RNA Bind-n-Seq
Molecule type: RNA
Sample: in vitro
Tested at: 365 nM
Notes: natural RNA segment, single round, ends assumed
Reference: no-protein control
Direction: higher = stronger binding
Shared flanks, not repeated: GGGAGUUCUACAGUCCGACGAUC … UGGAAUUCUCGGGUGCCAA
Construct (chain): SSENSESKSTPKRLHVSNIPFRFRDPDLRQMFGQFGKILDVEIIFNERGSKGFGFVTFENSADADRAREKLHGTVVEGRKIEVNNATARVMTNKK
Oligonucleotide	RBNS enrichment (R)
AAGUCUGGAUCUGGGACCCUUUCCUUCCUUCCCUGGCUUGUAACUCCACCAACCCAUCAGAAGGAGAAGGAAGGAGACUCACCUCUGCCUCAAUGUGAAUCAGACCCUAC	0.32
CCUCCCCUGCAGAAAAUAAGCACAGAAAAUUAUAAUGUAGGUGAUCGGAGCUCUUUCCUUUGAUAGAGAGAACAGCCCCAAUGAUCCUGGCUUUUUCACUGAACGUAUCA	0.564
GUUGGGCCUAAAUAAAUGAGCUGUUGGAAGAAAAGAAUCACAGUACUUUCCAGCAGUCAGUCCCUGGUUCCUAGAUGUGUUCUAAGCAAUGCAAAUGUCUAAUUGUCCCC	0.503
CUGUUUUGCAUAAUGAACAUUUUUAUUGGGCAUUCAAAGGGUGCAAGAUUGUCUGCUUACUCAUUUUUAAAAAUUAAAGAAAUGAACAAUCAGUGUGGCUAUUCCUAGCA	3.42
CUCUCUGGGACUUUUAAAGUUUUAUUACUAUUAUUGCUAAUGUAUGAUUAUGGUCAGAGACUUUCAACCCACCCCUUCCUGCCUACCCCUGGCUUUUCCUCACAAAGAAU	0.556
UUGGUAGUACGUGGUACAGUGGCUUUUCUCUGUGGUCAUGUCUUAGGGGCAAAGGCGUGUGGAUGGUGCCAAUGAAACCCUUUACCUAUUUAAUAAAAACGGAUACAUUU	0.509
UUCACAUCAACAGAGCGAGGCUGUGAUAACUUAGGAGGCAGCAAUCCUAAUAGUCCUUCAGUGCAUUUUAGUCUGUCUCCAACUGGACACCAGUAGGUAGUGUCAAGCCA	0.553
AUUGAAUUAACUUGCAGUGGUGUGUUUGAUUCUUUUUUAGACUGGCUUCAGCAUUGUGCAGUUUAAAAAUAAGUAAGUAACUUACAUAAAUCUUCAAUUGUAUGAACUGC	0.669
CUGAUUUUGCCACAACCUGGAUAUUGAAGCUAUCCAAGCUUUUGAAAUAAAAUUUAAAAACCCCCAAGCCUGGGUGAGUGUGGGAUAUGCUGUGUGAGACCUCUUGCUCA	0.704
GACACUAGACUCAGUAGAUUUUUAGGGAAAAAUAUGAUUAAUAGUAUCAUGGUGAACCAUUUAUUUAACUGUUGAUCUAGUCACCAAUACCUAGAAGACACCAUAAUCAG	0.289
CAUCUCUUCCUUCCAUGUCUUGAUGUUAUGCAGGAAGUACAGACGUACUUUAAAUUUUUGUUAUGAAAUAAAAAAAAGAUGGGUUUUGUAAAAAUAAAAAAAAAAUAUUU	4.82
UCACCGUGACUGCAGUUCCUGCCCCCAUUCUCUUGGGGUCAGGGAGGGGCUGGGAAGGGCUACUGAAGGCCCCAUUCUCCCACAGGAUGGUGAGGCUGGGAGGAGGAAGA	0.443

Block 2
Target: Centromere-binding protein 1, full length, N-terminal tag (CBF1, Saccharomyces cerevisiae, UniProt P17106, residues 1-351)
Chain of UniProt P17106 (whole entry, looked up): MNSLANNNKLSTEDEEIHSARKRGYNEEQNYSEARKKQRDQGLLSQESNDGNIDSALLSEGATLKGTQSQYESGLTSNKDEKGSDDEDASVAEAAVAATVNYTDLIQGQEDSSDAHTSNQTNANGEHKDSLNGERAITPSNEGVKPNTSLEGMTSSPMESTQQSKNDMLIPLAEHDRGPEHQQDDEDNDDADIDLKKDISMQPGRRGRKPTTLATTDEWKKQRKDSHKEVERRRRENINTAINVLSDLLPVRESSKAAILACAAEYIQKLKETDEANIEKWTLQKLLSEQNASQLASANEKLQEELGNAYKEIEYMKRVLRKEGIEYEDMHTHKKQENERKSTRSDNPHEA
Method: protein-binding microarray
Molecule type: double-stranded DNA, one strand shown
Sample: in vitro
Tested at: 0.8 µM
Notes: whole 60-bp probe, no competitor
Direction: higher = stronger binding
Shared flanks, not repeated: … GTCTTGATTCGCTTGACGCTGCTG
Oligonucleotide	fluorescence intensity [a.u.]
GAACTGGATGCTTTTCACGTAACCTGAAACAAGTAG	590
GAATAATACCCCAGTCACGAAAGGTGTGCTGCTTAG	545
CTAAGTGTAAGCGGTCAGGTGTAAGTAGTAGGCTTC	1130
CTAATTCTGAGCCATCTCTCCTGATATATAAGATTC	522
CTATTAATAATGCTACAGGAGACCATAAGTGATTTC	560
GAAAAATTAAGCGGAGGTGTGATTTGTTATATCTAG	575
CCTAACTACTATAGTCATGATCAATAGCTTCGTACA	526
CTAGCAAAATAATGTCTCCTGAACTACATCGCCTTC	559
CCTAACTACTATAACCACCAGGGATAGCTTCGTACA	490
GAACGGTCCTGCTCTCACGTTCTTCCTTATTGGTAG	695
CTATTTTTTAGAAATCGCGTGGCTTGGTAACGCTTC	592
GAAAGTTTGCGATGTTCTGATGCTTCAGGATTTTAG	489
GAAAATATCACTCTACACGTTACCTTTTTAGTGTAG	652
GAATTCCATCGATGCCATGTGACCTGGTGAATCTAG	6110

Block 3
Target: Histone acetyltransferase KAT6A, both winged helices, GST fusion (KAT6A, Homo sapiens, UniProt Q92794, residues 1-181)
Method: protein binding microarray
Molecule type: double-stranded DNA, one strand shown
Sample: in vitro
Tested at: not given
Notes: 8-mer, flanks averaged, mean of 2 arrays, mostly near background
Reference: not given
Direction: higher = stronger binding
Target sequence (chain): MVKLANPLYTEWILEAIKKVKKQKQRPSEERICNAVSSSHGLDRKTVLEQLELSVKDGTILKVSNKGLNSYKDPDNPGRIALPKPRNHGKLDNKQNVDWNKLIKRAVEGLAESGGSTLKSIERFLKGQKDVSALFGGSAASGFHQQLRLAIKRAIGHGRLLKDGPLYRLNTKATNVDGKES
Oligonucleotide	E-score
AATCTAAG	-0.0681
CGACTTGC	0.0393
GAGCCCTC	-0.0244
TCTGAACA	-0.0215
CAATCTGG	-0.209
CGTTGCTA	-0.0897
ATCTTTCG	-0.169
AAGAGCCC	-0.0865
ATGGCTGG	-0.264
CACCCGAA	0.0906
AAGCAGAA	-0.123
ACCGTGCA	-0.0393
AACACCAG	-0.18
GCCGCGTA	0.329
AAGTACTT	0.0155
CCGATTTA	0.109
AAAACCTA	-0.086
ATCGGTCG	0.118

Block 4
Target: RING finger protein unkempt homolog, zinc fingers 1-6, GST-SBP tag (UNK, Homo sapiens, UniProt Q9C0B0, residues 30-357)
Chain of UniProt Q9C0B0 (30-357, looked up): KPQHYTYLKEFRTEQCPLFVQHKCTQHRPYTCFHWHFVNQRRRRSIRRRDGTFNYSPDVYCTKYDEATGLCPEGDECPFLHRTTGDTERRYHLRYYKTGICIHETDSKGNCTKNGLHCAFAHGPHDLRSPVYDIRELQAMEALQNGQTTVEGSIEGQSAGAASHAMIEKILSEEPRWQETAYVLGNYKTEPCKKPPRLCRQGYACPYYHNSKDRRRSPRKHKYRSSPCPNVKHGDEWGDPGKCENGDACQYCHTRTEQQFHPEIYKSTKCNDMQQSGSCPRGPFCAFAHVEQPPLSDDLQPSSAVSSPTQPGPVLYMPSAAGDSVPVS
Method: RNA Bind-n-Seq
Molecule type: RNA
Sample: in vitro
Tested at: not given
Notes: RNA with constant flanks, human and mouse sites, ends assumed
Reference: input RNA pool
Direction: higher = stronger binding
Shared flanks, not repeated: GGGAGUUCUACAGUCCGACGAUC … CAACAGAGGAUUGAGCAUCA
Oligonucleotide	bound/input enrichment
AUAGCGCCCAGAGGAGAUGGGCAUUAUCCAUCGAGUUGUCCAGUGACUCACACUCGAGAGAAAAUUUAUGCGAUCUGCUCAGAUUAUGCCUUCCUCAACCAGGCAACAUCAGUCUACAAA	0.179 ratio
AAUCAAGGUUACCAUUAUAAUUUAUCUCUCUAUUUUGGGCCUUCUGCUUCUGUACAUGGUAUAUCUUACCUUAGUUGAGCCCAUCCUGAAGAGGCGCCUCUUUGGACACUCCCAGCUGUU	0.348 ratio
AUCUAUGCUAACCUCUCUGAUGAGAAGGCUUUCGUGUUUUCAGUUGCCUUGGCAGAAAUAAAUAGAAAAAUUAUCAAUCAAAGACUUAUUCUCUGAUAUUUGUCUUCAAACUCUGUUGGU	0.634 ratio
GAAAUGAGGGCAAGAGCAAUUAAGGCUCUCAUGAAAGCUGGUGAUAUAAAAAAGCCAGUGUAGUUUUCUGACUUGAAUAUUAUGUGUGUUUGAAUGAAGCCAUGUCAUAUAAUUUUGUAU	0.32 ratio
CAGUUAAGAAAAGGUGUGAGUGAGAUUGGAGAUGCAGCUGACUACGAUGAAGAGCUCUAUGUGGCUGGGAACAUGGUUAUCUGGAGCAAAGGGAGUAAAAGCCAGGCACUGGCAGUGUAC	0.47 ratio
GGAUCUUGUGACUGGCUUUGCUUGAUUGGUCAUUGGUAUCUCAACAAGCAUGGAGAUGAGAUUAGAAGUUUUGACAUCAACAAGUAUCAAGCAGAAAAAACCCUGGCCCAGAGUAUCCUG	0.515 ratio
AGUGAAUACUUACUAUAAUUUGACUUGAAUAUGUAGCUCAUCCUUUACACCAACUCCUAAUUUUAAAUAAUUUCUACUCUGUCUUAAAUGAGAAGUACUUGGUUUUUUUUUUUCUUAAAU	1.1 ratio
AACAAGACAGACUUGCUUGAGGAGAAGGUGCAAAUUGUGAGCAUCAAAGACUAUUUCCUAGAAUUUGAAGGGGAUCCCCACUGCUUAAGAGACGUCCAAAAAUUCCUGGUGGAAUGUUUC	0.161 ratio
AUGACUCUGCUGUUCUAAGCCUCCCAUGGUUCUCUUGUAACUGUGUUGGCUUGCUUUAAAAUAGAGCAAGCCUAGGGCUGGUGAGAUGGCUCAGUGGGUAAGAGCACCCGACUGCUCUUC	0.104 ratio
CACUCUUCUCCCUGUUUCUAUUCCCUGACCCCUGAGUAGCUGUAGUUUCCCCUGUAGCUUUAGCUAAAUAUCAAGCAACUCCACAAGCUUCUUAAGAAGCCAUGGACACCAAGUAGCACA	2.17 ratio
AACUUUGUACAUAGAUUUCCUUUUGUAGCUGUUUCAAUUGGCUUUGCUGUAAAUAAAAAGAUAGAAUUUGGAGUUGUGUACAGUUGUGUGGAAGGCAAGAUGUACACUGCCAGAAAAGGA	2.94 ratio

Some of these lines once more (block 1):
Oligonucleotide	RBNS enrichment (R)
GUUGGGCCUAAAUAAAUGAGCUGUUGGAAGAAAAGAAUCACAGUACUUUCCAGCAGUCAGUCCCUGGUUCCUAGAUGUGUUCUAAGCAAUGCAAAUGUCUAAUUGUCCCC	0.503
AUUGAAUUAACUUGCAGUGGUGUGUUUGAUUCUUUUUUAGACUGGCUUCAGCAUUGUGCAGUUUAAAAAUAAGUAAGUAACUUACAUAAAUCUUCAAUUGUAUGAACUGC	0.669
GACACUAGACUCAGUAGAUUUUUAGGGAAAAAUAUGAUUAAUAGUAUCAUGGUGAACCAUUUAUUUAACUGUUGAUCUAGUCACCAAUACCUAGAAGACACCAUAAUCAG	0.289
UCACCGUGACUGCAGUUCCUGCCCCCAUUCUCUUGGGGUCAGGGAGGGGCUGGGAAGGGCUACUGAAGGCCCCAUUCUCCCACAGGAUGGUGAGGCUGGGAGGAGGAAGA	0.443
CUGUUUUGCAUAAUGAACAUUUUUAUUGGGCAUUCAAAGGGUGCAAGAUUGUCUGCUUACUCAUUUUUAAAAAUUAAAGAAAUGAACAAUCAGUGUGGCUAUUCCUAGCA	3.42
CAUCUCUUCCUUCCAUGUCUUGAUGUUAUGCAGGAAGUACAGACGUACUUUAAAUUUUUGUUAUGAAAUAAAAAAAAGAUGGGUUUUGUAAAAAUAAAAAAAAAAUAUUU	4.82
UUGGUAGUACGUGGUACAGUGGCUUUUCUCUGUGGUCAUGUCUUAGGGGCAAAGGCGUGUGGAUGGUGCCAAUGAAACCCUUUACCUAUUUAAUAAAAACGGAUACAUUU	0.509
CUGAUUUUGCCACAACCUGGAUAUUGAAGCUAUCCAAGCUUUUGAAAUAAAAUUUAAAAACCCCCAAGCCUGGGUGAGUGUGGGAUAUGCUGUGUGAGACCUCUUGCUCA	0.704
CUCUCUGGGACUUUUAAAGUUUUAUUACUAUUAUUGCUAAUGUAUGAUUAUGGUCAGAGACUUUCAACCCACCCCUUCCUGCCUACCCCUGGCUUUUCCUCACAAAGAAU	0.556
